Results collected from several papers.
Lines come from different studies, so protocols differ. “And” joins repeats or separate records; there may be more than shown. ± gives the spread as reported.

SMILES	assay	system	conditions	scale	measurement	value
O=C(O)c1ccc(-c2nc(-c3ccccc3Cl)c3sccn23)cc1		C57BL/6 mice, 5-fluorouracil treated	dose not given, day -3	baseline: RBC	reticulocytes	1.9% and 1.89% and 1.62% and 1.74%
COC(=O)[C@H](CC(C)C)NC(=O)[C@@H]1CCCN1C(=O)[C@@H](NC(=O)[C@H](CCC(=O)C=[N+]=[N-])NC(=O)OCc1ccccc1)C(C)C	safranine O	isolated mouse brain mitochondria	0.02 mM, added: ATP 2 mM		membrane potential	no effect
COc1ccccc1-c1n[nH]c2nc(N[C@H]3CC[C@H](NS(=O)(=O)CC(C)C)CC3)ncc12	bead binding, competition bead pull-down, measured: LINJ.24.2150	Leishmania donovani extract	10 µM	baseline: vehicle	relative abundance	1.13
C(=N\Cc1cc(C/N=C/c2cccs2)cc(-c2cc(C/N=C/c3cccs3)cc(C/N=C/c3cccs3)c2)c1)/c1cccs1		hACE2 mice, bronchoalveolar lavage fluid	dose not given	baseline: control	IL-18 level	decreased
CCCC[C@@H]1NC(=O)[C@H](Cc2ccc(O)cc2)NC(=O)[C@@H]2CCCN2C(=O)[C@H](CC(=O)O)NC(=O)[C@H](C)NC(=O)[C@H](Cc2ccccc2)NC(=O)[C@@H]2CSCCC(=O)N3CN(CN(C3)C(=O)CCSC[C@@H](C(=O)N[C@@H](C)C(N)=O)NC1=O)C(=O)CCSC[C@H](NC(C)=O)C(=O)N[C@@H](CC(C)(C)C)C(=O)N1CCC[C@H]1C(=O)N[C@@H](CCC(=O)O)C(=O)N[C@H](CCCCNC(=O)CCc1cn(CCOCCOCCOCCN(CCOCCOCCOCCC(=O)N[C@H]3CSCCC(=O)N4CN5CN(C4)C(=O)CCSC[C@H](NC(=O)[C@@H](CC(=O)O)NC(=O)[C@H](Cc4cccc6ccccc46)NC(=O)[C@@H]4CCCN4C3=O)C(=O)N[C@@H](CCSC)C(=O)N[C@@H](CCCCNC(=N)N)C(=O)N[C@@H](CC(=O)O)C(=O)N[C@@H](Cc3c[nH]c4ccccc34)C(=O)N[C@@H](CO)C(=O)N[C@@H]([C@@H](C)O)C(=O)N3CCC[C@H]3C(=O)N3C[C@H](O)C[C@H]3C(=O)N[C@@H](Cc3c[nH]c4ccccc34)C(=O)N[C@H](C(N)=O)CSCCC5=O)CCOCCOCCOCCn3cc(CCC(=O)NCCCC[C@H]4NC(=O)[C@H](CCC(=O)O)NC(=O)[C@@H]5CCCN5C(=O)[C@H](CC(C)(C)C)NC(=O)[C@@H](NC(C)=O)CSCCC(=O)N5CN6CN(C5)C(=O)CCSC[C@H](NC(=O)[C@H](Cc5ccc(O)cc5)NC(=O)[C@@H]5CCCN5C4=O)C(=O)N[C@@H](Cc4ccccc4)C(=O)N[C@@H](C)C(=O)N[C@@H](CC(=O)O)C(=O)N4CCC[C@H]4C(=O)N[C@@H](Cc4ccc(O)cc4)C(=O)N[C@@H](CCCC)C(=O)N[C@H](C(=O)N[C@@H](C)C(N)=O)CSCCC6=O)nn3)nn1)C(=O)N1CCC[C@H]1C(=O)N[C@@H](Cc1ccc(O)cc1)C(=O)N2	NanoString, measured: Bst1-mRNA	mouse bearing MC38-Nectin-4 tumour, circulating white blood cells	5 mg/kg, 24 h after dosing, unit not given	baseline: vehicle	mRNA level	2.03
[Cu+2].c1cnc2c(c1)c1nccnc1c1cccnc12.c1cnc2c(c1)c1nccnc1c1cccnc12	DNA cleavage	supercoiled pUC19 DNA	100 µM, 4 h, 37 °C, no reducing agent, added: DNA 40 µM		supercoiled DNA form	2%
CCCCCCCCCCCC1CC(=O)NC(CC(N)=O)C(=O)NC(Cc2ccc(O)cc2)C(=O)NC(CC(N)=O)C(=O)NC(CCC(N)=O)C(=O)N2CCCC2C(=O)NC(CC(N)=O)C(=O)NC(CO)C(=O)N1 (stereo not drawn)	calcein leakage	DOPC/DOPG/CHOL liposomes	concentration not given, added: 20 wt% PEG-8000		maximum fusion	64 ± 8%
COc1nc(CC=C(C)CC=CC(C)=CC(C)C(OC2OC(CO)C(O)C(O)C2O)C(C)=CCO)c(C)c(O)c1OC (stereo not drawn)	glucuronidation	human liver microsomes			Vmax	0.061 ± 0.001 nmol/min/mg
Cc1ccc(C2=CC(C)(C)Oc3ccc(-c4ccc(-c5ccc(C(=O)O)cc5)[nH]4)cc32)cc1		CD1 mouse, male	20 mg/kg, 4 weeks after treatment, dosed for 2 weeks		testis weight	0.116 g and 0.095 g and 0.088 g and 0.0987 g and 0.0915 g
CC(C)[C@@H]1NC(=O)[C@@H]2CCCN2C(=O)[C@@H](C(C)C)NC(=O)[C@H]2CCCN2C(=O)[C@H](C(C)C)NC(=O)[C@@H]2CCCN2C(=O)[C@@H](C(C)C)NC(=O)[C@H]2CCCN2C(=O)[C@H](C(C)C)NC(=O)[C@@H]2CCCN2C(=O)[C@@H](C(C)C)NC(=O)[C@H]2CCCN2C1=O		sheep lipid bilayer	10 µM, pH 7.4, 23 °C, added: Cs cation		transference number	0.92
CCN(Cc1ccccc1)C(=O)CCc1nc(CN2CCN(C(=O)Cc3ccc(OC)c(OC)c3)CC2)no1	beam walking test	mouse CCI model	20 mg/kg, unit not given	lower is better	foot slips	1 ± 0.26
Cc1ccc(S(=O)(=O)N2CC2C(=O)N(C)C)cc1 (stereo not drawn)		mouse, Lewis lung carcinoma	intraperitoneal, 170 mg/kg, 16 doses, day 12		tumour volume	681 mm3
CC(C)C[C@@H]1NC(=O)[C@@H](Cc2c[nH]c3ccccc23)NC(=O)[C@H](CCCNC(=N)N)NC(=O)[C@@H](CCC(=O)O)NC(=O)[C@H](CCC(N)=O)NC(=O)[C@@H](CCC(=O)O)NC(=O)[C@H](CCCNC(=N)N)NC(=O)[C@@H](Cc2c[nH]c3ccccc23)NC1=O	Luminex, measured: LIX	LDLr-/- mice, Western diet, liver	dose not given, 4 weeks		cytokine level	290 ± 240 pg/g tissue
CCc1nnc(-c2c(OC)cc(-c3cnc4cc(-c5cnn(C)c5)ccn34)cc2OC)o1	histomorphometry	male C57BL/6J mouse, tibia	oral gavage, 40 mg/kg once daily, 3 wk		osteoclast surface/bone surface	20.7 ± 2.15%
COc1ccccc1-c1n[nH]c2nc(NC3CCN(C(=O)Cc4ccc(F)cc4F)CC3)ncc12	bead binding, competition bead pull-down, measured: LINJ.35.1240	Leishmania donovani extract	10 µM	baseline: vehicle	relative abundance	1.17

Excerpt of the above:
SMILES	assay	system	conditions	scale	measurement	value
COC(=O)[C@H](CC(C)C)NC(=O)[C@@H]1CCCN1C(=O)[C@@H](NC(=O)[C@H](CCC(=O)C=[N+]=[N-])NC(=O)OCc1ccccc1)C(C)C	safranine O	isolated mouse brain mitochondria	0.02 mM, added: ATP 2 mM		membrane potential	no effect
